Experimental data from different studies.
Each numbered part is a random draw from the data of one study; scales do not carry over between parts. Positions count from the first letter of the parent shown.

Set 1 — method: DHFR PCA, deep sequencing; matrix: yeast; with: (+)-ABA 0.0091 µM; reference: wild-type fitted maximum; direction: higher = stronger binding
Target: ABI1, truncated, D143A, DHFR fusion (Arabidopsis thaliana)
Setting: methotrexate growth selection, single substitutions
Starting sequence: PYL1, truncated, DHFR fusion (Arabidopsis thaliana); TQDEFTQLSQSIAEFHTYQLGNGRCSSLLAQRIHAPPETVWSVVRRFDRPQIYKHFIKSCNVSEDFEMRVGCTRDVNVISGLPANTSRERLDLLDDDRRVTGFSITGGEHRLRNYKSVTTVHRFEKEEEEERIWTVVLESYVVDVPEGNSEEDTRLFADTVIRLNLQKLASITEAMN; partner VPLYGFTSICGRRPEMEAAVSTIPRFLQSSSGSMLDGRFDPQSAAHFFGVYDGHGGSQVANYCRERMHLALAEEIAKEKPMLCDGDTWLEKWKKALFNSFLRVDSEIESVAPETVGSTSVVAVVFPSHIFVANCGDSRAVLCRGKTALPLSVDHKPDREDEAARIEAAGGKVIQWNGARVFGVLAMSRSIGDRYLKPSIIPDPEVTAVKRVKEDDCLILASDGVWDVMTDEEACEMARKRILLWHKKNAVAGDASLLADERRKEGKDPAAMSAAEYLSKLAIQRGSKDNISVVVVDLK
| Substitution | relative binding score [%] |
| --- | --- |
| F103H | -0.758 |
| V40H | -0.849 |
| S87P | 12 |
| H55A | 21.1 |
| G102E | -2.19 |
| D96V | 2.42 |
| I52H | 4.88 |

Set 2 — target: CCNF, cyclin fold, Cln2 fusion (human); method: yeast growth competition, sequencing; matrix: yeast; setting: strong parent motif; reference: not given; direction: higher = stronger binding
Starting sequence: CDKN1A docking peptide (human); SKACRRLFGPVDS
| Substitution | normalised enrichment score |
| --- | --- |
| R5L | 0.464 |
| K2Q | 7.28 |
| R6L | 4.19 |
| V11G | 7.45 |
| K2W | 7.05 |
| C4W | 1.14 |
| F8L | 0.517 |
| L7T | 0.66 |

Set 3 — method: protein binding microarray; form: double-stranded DNA, one strand shown; matrix: in vitro; concentration: not given; reference: not given; direction: higher = stronger binding
Target: Histone acetyltransferase KAT6A, winged helix 1, GST fusion (KAT6A, Homo sapiens, UniProt Q92794, residues 1-85)
Setting: 8-mer, flanks averaged, mean of 2 arrays, mostly near background
Construct (chain): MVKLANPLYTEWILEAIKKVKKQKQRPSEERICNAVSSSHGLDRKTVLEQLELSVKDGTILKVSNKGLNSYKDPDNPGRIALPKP
| Oligonucleotide | E-score |
| --- | --- |
| ACCCCAAA | -0.211 |
| CAGTAGGA | -0.14 |
| AGTAGTTA | -0.0174 |
| AAATATAG | 0.0563 |
| AAATTCAA | -0.139 |
| AAATAGAA | -0.16 |
| CCAGTAAG | -0.153 |
| AACTTAGG | -0.16 |
| CCCTTTCC | 0.0677 |

Other studies, line by line
| Molecule | target | assay | test system | setting | scale | measurement | result |
| --- | --- | --- | --- | --- | --- | --- | --- |
| PhoQ, residues 284 288 289 292 302 303 SSCCRF | PhoP, residues 12 14 15 18 19 MHTVL (Escherichia coli, UniProt P23836) | Sort-seq, item: YFP reporter | E. coli | PhoQ-PhoP variant library, with: 10 µM Mg2+ | reference: high Mg2+ state, higher = stronger signaling | fold induction | 11.7 |
